# Measurements of several laboratories.
# Every numbered part comes from another study and shows a few of its results, in no order. Changes are numbered by the printed parent chain.
# UniProt Q9ZSY8, sequence (whole entry, looked up): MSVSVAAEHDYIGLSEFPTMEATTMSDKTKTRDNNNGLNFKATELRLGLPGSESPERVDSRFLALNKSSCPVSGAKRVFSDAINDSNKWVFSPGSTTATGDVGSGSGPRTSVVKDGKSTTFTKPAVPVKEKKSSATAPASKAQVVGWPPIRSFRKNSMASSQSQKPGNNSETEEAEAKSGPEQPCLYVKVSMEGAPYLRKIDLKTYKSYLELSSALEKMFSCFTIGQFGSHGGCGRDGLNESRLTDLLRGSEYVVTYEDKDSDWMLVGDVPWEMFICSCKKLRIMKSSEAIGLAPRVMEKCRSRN
# UniProt Q8LAL2, sequence (whole entry, looked up): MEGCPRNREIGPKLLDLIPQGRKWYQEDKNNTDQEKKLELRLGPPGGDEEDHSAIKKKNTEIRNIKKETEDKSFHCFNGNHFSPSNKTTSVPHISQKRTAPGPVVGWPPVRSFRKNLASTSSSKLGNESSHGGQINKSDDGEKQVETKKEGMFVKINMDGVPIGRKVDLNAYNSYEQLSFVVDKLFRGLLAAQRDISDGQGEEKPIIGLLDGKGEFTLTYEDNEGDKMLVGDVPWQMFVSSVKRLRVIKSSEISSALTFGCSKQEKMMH
# UniProt O23661, sequence (whole entry, looked up): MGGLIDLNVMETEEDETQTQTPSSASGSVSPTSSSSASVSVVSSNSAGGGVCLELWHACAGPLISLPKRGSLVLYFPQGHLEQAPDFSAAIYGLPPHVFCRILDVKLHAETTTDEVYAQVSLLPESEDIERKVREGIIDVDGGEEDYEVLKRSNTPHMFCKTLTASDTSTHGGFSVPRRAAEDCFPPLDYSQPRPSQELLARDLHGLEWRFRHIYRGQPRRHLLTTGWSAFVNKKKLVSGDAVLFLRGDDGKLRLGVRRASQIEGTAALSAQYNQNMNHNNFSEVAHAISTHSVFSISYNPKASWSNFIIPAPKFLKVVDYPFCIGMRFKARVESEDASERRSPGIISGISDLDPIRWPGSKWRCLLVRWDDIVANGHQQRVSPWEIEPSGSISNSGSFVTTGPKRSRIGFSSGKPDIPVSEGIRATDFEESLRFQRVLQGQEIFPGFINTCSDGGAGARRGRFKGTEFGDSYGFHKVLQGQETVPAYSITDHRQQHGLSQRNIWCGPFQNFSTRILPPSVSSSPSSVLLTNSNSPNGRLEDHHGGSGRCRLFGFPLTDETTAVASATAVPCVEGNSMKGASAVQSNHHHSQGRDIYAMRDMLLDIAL

# Series 1 — method: two-hybrid; baseline: out of 4 tests; reading: higher = firmer interaction
# Partner: ARF12 500-593 (Arabidopsis thaliana, UniProt Q9XID4)
# Residues (chain): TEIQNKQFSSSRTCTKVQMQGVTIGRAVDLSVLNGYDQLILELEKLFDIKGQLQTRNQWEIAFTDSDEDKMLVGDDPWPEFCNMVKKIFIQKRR
Substance,positive tests
"IAA27 (Arabidopsis thaliana, UniProt Q9ZSY8)",0
"ETT (Arabidopsis thaliana, UniProt O23661)",0
"IAA26 (Arabidopsis thaliana, UniProt Q8LAL2)",0

# Series 2 — method: RNA Bind-n-Seq; molecule type: RNA; sample: in vitro; concentration: 200 nM; notes: whole 134-nt RNA, ends assumed; with: 150 mM KCl; baseline: input library; reading: higher = stronger binding
# Target: Ras GTPase-activating protein-binding protein 1, full length (G3BP1, Homo sapiens, UniProt Q13283)
# UniProt Q13283, sequence (whole entry, looked up): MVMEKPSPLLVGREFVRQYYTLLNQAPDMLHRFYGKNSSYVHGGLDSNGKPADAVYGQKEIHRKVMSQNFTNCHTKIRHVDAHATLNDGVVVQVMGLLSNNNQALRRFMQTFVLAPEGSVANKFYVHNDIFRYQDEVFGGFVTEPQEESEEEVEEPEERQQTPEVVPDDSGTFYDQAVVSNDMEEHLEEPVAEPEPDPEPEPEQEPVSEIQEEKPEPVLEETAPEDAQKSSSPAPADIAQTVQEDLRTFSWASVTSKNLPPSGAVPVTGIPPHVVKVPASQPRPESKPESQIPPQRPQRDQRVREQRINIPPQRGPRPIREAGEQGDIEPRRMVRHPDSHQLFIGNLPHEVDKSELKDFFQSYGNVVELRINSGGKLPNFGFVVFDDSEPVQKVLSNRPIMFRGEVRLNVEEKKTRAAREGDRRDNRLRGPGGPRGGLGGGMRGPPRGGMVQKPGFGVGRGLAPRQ
# All sequences stand within: GGGAGUUCUACAGUCCGACGAUC … UGGAAUUCUCGGGUGUCAAGG
Oligonucleotide,log2 enrichment
UUCAGUUGGAUGGAUUUAUUGCUCGAAACUGGGCCAAUCAAAGAUCAGCUUUGGGAAGUGCUCUUGAUCCACUUGCUGAUAAAAUACUUA,-1.42
UUCGAAGAGGUUGUGUACCAGGCCAUGGGUGAGUGCCCGGGCCACCGAGGCCACGUGCCUCCACGAGGGGCUGCCUAUGCCCCACCCUGG,-0.653
ACCAUGCAGGUGGGCAUCUUUGGGAAGUGGGGCAAGGGGGGGAUAGGGAGGGGGGUAACACUUUGGGAACAGGUGGUCCAAGGUCGUUUC,1.2
CAAGUCCUGUGCUACACAUCGUAUGUACCGAAUCGGCCCGGGGCCCGGCCCGGGGAAAGUAUUAUGUUACGCCGUUCGGAUCUGCACUUC,-0.742
CAAGUCCUGUGCUACACAUCGUAUGUACCGAAUCGGAAAAAAAGGAAAGGAAAGGAAAGUAUUAUGUUACGCCGUUCGGAUCUGCACUUC,-1.28
CACAGACAACACGCACCCACACAGACACACAGGGAAGGGGUUGGGAUGGGGACAGGGUGCACAGCAGGGCGGGGUAGGACCCCAGCCCCU,1.78
UGGGAGGUGGAUUUUGUUUAUUUUUUUAGCUCAUUUCCAGGGGUGGGAAUUUUUUUUUAAUAUGUGUCAUAAAUAAAGUUGUUUUUGAAA,0.151
UCAAGUCCUGUGCUACACAUCGUAUGUACCGAAUCGGGGUUGGUUGGGUUGGGGAAAGUAUUAUGUUACGCCGUUCGGAUCUGCACUUCC,0.593

# Other studies, line by line
# P1: viral docking peptide; KKVKRRLFETREL; partner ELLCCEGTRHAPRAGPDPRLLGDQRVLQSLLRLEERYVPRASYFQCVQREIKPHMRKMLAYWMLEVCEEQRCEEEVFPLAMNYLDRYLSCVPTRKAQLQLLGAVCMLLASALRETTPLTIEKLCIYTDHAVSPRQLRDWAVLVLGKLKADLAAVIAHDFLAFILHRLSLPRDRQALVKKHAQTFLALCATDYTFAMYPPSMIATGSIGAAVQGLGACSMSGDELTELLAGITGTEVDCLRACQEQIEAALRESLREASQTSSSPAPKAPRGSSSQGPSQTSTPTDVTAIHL
Substance,target or system,test,system,setting,how to read,measurement,value
"SEH1L (Homo sapiens, UniProt Q96EE3)","NUP88 (Homo sapiens, UniProt Q99567)",cross-linking MS,cell fractions,with: DSSO,,cross-linked residues,K243 to K680
P1 R6A,"CCND3, cyclin fold, Cln2 fusion (human)","yeast growth competition, sequencing",yeast,weak parent motif,"baseline: not given, higher = stronger binding",normalised enrichment score,0.108
"EIF4G3 (Homo sapiens, UniProt O43432)","EIF4A1 (Homo sapiens, UniProt P60842)",cross-linking MS,,hits only,,interaction screen,cross-linked
"YWHAE (Homo sapiens, UniProt P62258)","YWHAZ (Homo sapiens, UniProt P63104)",cross-linking MS,cell fractions,with: DHSO,,cross-linked residues,E25 to D20
"CPSF2 (Homo sapiens, UniProt Q9P2I0)","CPSF3 (Homo sapiens, UniProt Q9UKF6)",cross-linking MS,,hits only,,interaction screen,cross-linked

# A few entries again (other studies, line by line):
Substance,target or system,test,system,setting,how to read,measurement,value
"EIF4G3 (Homo sapiens, UniProt O43432)","EIF4A1 (Homo sapiens, UniProt P60842)",cross-linking MS,,hits only,,interaction screen,cross-linked
"YWHAE (Homo sapiens, UniProt P62258)","YWHAZ (Homo sapiens, UniProt P63104)",cross-linking MS,cell fractions,with: DHSO,,cross-linked residues,E25 to D20
